Measured values collected from several papers.
Protocols differ between the studies behind these lines. In brackets after ≈: the same amount, converted by molar mass.
Sequence of UniProt P10632 (whole entry, looked up): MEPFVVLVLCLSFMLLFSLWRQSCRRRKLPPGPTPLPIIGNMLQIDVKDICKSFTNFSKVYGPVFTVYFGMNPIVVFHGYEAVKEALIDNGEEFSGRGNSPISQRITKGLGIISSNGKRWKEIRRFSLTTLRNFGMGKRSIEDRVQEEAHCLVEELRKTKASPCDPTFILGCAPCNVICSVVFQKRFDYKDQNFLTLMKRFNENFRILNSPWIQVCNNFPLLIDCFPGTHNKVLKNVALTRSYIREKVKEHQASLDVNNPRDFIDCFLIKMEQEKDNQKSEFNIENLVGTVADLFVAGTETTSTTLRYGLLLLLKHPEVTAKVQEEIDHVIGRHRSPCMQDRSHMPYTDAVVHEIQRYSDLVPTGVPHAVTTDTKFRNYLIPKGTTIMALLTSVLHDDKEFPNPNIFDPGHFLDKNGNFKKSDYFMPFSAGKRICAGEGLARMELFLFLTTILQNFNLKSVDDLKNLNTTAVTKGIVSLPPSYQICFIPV
Sequence of UniProt P11712 (whole entry, looked up): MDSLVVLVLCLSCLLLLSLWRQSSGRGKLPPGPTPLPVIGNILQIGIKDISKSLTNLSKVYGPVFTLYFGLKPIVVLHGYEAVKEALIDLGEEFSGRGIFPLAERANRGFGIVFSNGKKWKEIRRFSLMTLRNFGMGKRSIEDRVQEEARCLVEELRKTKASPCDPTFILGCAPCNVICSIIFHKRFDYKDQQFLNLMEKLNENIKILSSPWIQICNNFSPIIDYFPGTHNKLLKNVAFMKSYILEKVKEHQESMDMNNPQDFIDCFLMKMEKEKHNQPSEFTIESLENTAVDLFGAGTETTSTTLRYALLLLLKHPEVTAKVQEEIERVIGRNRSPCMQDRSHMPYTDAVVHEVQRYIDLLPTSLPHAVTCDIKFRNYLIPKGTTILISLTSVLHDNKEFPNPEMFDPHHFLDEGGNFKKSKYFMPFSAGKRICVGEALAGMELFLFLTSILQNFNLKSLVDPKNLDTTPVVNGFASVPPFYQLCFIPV
Sequence of UniProt P33261 (whole entry, looked up): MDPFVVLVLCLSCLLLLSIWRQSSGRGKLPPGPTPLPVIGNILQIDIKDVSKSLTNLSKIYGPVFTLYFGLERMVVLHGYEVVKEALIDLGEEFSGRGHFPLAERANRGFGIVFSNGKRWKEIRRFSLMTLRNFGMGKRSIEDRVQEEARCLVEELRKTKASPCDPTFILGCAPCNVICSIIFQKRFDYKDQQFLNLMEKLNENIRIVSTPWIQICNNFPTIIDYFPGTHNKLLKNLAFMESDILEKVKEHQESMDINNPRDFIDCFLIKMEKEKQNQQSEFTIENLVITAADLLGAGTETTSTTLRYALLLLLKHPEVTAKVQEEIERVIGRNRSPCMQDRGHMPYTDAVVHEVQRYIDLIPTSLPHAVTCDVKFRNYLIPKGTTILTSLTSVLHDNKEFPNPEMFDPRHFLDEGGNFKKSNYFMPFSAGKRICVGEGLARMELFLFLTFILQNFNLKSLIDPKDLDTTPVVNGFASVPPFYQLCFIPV
Sequence of UniProt P08183 (whole entry, looked up): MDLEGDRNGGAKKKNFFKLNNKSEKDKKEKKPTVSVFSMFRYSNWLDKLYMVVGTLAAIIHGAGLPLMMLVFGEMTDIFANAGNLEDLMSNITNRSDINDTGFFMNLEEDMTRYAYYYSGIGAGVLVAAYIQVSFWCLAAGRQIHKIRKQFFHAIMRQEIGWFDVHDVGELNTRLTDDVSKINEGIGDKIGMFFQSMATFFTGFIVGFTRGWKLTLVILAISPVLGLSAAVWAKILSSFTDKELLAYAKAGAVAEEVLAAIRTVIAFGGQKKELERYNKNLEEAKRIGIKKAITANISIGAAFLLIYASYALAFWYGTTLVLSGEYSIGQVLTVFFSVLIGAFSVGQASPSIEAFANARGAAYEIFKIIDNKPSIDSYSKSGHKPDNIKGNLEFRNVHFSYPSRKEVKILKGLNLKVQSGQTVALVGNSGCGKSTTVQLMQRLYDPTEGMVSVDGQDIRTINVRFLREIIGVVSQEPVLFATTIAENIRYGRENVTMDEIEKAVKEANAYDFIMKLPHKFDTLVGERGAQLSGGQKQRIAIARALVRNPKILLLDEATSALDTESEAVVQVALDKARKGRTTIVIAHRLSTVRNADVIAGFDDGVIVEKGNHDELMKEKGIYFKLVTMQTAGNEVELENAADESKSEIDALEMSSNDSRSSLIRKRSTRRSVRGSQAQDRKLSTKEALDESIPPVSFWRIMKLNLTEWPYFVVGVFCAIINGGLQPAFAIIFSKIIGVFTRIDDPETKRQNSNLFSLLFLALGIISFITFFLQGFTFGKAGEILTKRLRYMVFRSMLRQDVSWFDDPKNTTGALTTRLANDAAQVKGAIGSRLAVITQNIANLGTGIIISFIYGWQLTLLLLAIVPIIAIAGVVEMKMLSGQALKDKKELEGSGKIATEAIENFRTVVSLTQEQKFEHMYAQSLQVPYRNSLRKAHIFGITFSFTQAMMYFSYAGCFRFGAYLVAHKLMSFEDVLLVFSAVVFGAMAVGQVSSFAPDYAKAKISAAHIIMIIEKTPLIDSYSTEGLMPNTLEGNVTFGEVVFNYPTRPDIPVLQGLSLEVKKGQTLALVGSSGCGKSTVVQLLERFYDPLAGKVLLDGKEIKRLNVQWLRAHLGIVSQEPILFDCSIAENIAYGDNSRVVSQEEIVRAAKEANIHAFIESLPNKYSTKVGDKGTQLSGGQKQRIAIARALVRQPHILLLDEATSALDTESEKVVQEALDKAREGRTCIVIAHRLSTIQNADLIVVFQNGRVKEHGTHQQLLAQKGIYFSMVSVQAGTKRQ

`CC[C@@](O)(c1cnc(C(F)(F)F)c(Cl)c1)c1c2ccn(C3CC3)c(=O)c2nn1C` gave a kinetic solubility of 40 to 80 µM (≈ 17.1 to 34.1 µg/mL) (nephelometry; aqueous buffer; 30 min, pH 6.5).
For `COc1cccc(-c2n[nH]c(SCc3ccccn3)n2)c1OC`, the concentration was 72000 ng/mL (male Sprague-Dawley rat, plasma; oral, 100 mg/kg, 15 min, single dose).
The compound remaining of `O=C(c1ccc(F)cc1)C1CCN(CCn2c(=O)[nH]c3ccccc3c2=O)CC1` is reported as 36.6% (metabolic stability; monkey, liver microsomes; 45 min).
With `CC1(C)CCC2(CC1)N[C@@H](C(=O)N[C@@H]1CC[C@@H](C(N)=O)OC1)[C@H](c1ccnc(Cl)c1F)[C@]21C(=O)Nc2cc(Cl)ccc21` the efflux ratio was 2.72 (ATP-dependent translocase ABCB1 (ABCB1, Homo sapiens, UniProt P08183); Caco-2; 30 µM, 2 h).
For `COc1ccc(C(=O)O)cc1NC(=O)/C=C/c1ccc(-c2ccccc2C)cc1`, the IC50 was 28.4 µM (K562; cell growth or viability).
With `COc1ccc2c(=O)n(C)c(-c3ccccc3)nc2c1` the concentration was 24 ng/mL (male Sprague-Dawley rat, plasma; oral, 30 mg/kg, 2 h).
The inhibition of `O=C(Nc1c2c(cc3c1CCC3)CCC2)NS(=O)(=O)/C=C/c1nccs1` is reported as 85.5% (Cytochrome P450 2C8 (CYP2C8, Homo sapiens, UniProt P10632); enzyme activity, inhibitor; human, liver microsomes; 10 µM, pH 7.4).
`CCn1ccc2c([C@](O)(c3cnc(C(F)(F)F)c(Cl)c3)C3CC3)n(C)nc2c1=O` gave a kinetic solubility of 40 to 80 µM (≈ 17.1 to 34.1 µg/mL) (nephelometry; aqueous buffer; 30 min, pH 6.5).
For `COc1cccc(OC)c1-c1cc(C(=O)NC2(C(=O)O)C3CC4CC(C3)CC2C4)nn1-c1ccc(C(=O)N(C)CCCN(C)CCCN(C)C(=O)CN2CCN(CC(=O)[O-])CCN(CC(=O)[O-])CCN(CC(=O)[O-])CC2)cc1C(C)C.[177Lu+3]` (stereo not shown), the tracer uptake was 0.09 %ID/g (HT-29 tumour model; host not given, pancreas; 72 h, tumour-bearing).
With `Cc1noc(C)c1Cn1cc(N2C(=O)CN(Cc3cccc(O)c3)C2=O)cn1` the concentration was 105 ng/mL (male Sprague-Dawley rat, plasma; oral, 100 mg/kg, 30 min, single dose).
`Cn1nc2c(=O)n(C3CC3)ccc2c1[C@](N)(c1cnc(C(F)(F)F)c(Cl)c1)C(F)(F)F` has a kinetic solubility of 40 to 80 µM (≈ 18.6 to 37.3 µg/mL) (nephelometry; aqueous buffer; 30 min, pH 6.5).
For `Nc1nc(N)c2nc(CNc3ccc(C(=O)N4CCC(C(=O)O)CC4)cc3)cnc2n1`, the inhibition was -10.5% (Cytochrome P450 2C9 (CYP2C9, Homo sapiens, UniProt P11712); enzyme activity, inhibitor, luciferase; 10 µM).
With `Cn1nc2c(=O)n(C3CC3)ccc2c1[C@](O)(c1ccc(C(F)(F)F)c(Cl)c1)C(F)(F)F` the kinetic solubility was 5 to 10 µM (≈ 2.33 to 4.66 µg/mL) (nephelometry; aqueous buffer; 30 min, pH 6.5).
`Cc1nnc(-c2ccccc2)nc1O` has an IC50 of greater than 200 µM (K562; cell growth or viability).
`Cc1nn(C2CC2)c(=O)c2nn(C)c(Cc3ccc(C(F)(F)F)c(C#N)c3)c12` has a kinetic solubility of 8 to 16 µM (≈ 3.1 to 6.2 µg/mL) (nephelometry; aqueous buffer; 30 min, pH 6.5).
`COC(=O)C1CCN(C(=O)c2cccc(NCc3cnc4nc(N)nc(N)c4n3)c2)CC1` gave an inhibition of -19% (Cytochrome P450 2C19 (CYP2C19, Homo sapiens, UniProt P33261); enzyme activity, inhibitor, luciferase; 10 µM).
`CCn1cc(C2CC2)c2c(CN3CCC(F)(F)CC3)n(C)nc2c1=O` gave a kinetic solubility of 50 to 100 µM (≈ 17.5 to 35 µg/mL) (nephelometry; aqueous buffer; 30 min, pH 6.5).
The CC50 of `Cc1ccc(N(CC(C)C)c2ccc(NC(=O)CN(C)c3ccccc3N3CCCC3=O)cc2)cc1` is reported as greater than 40 µM (HepG2; cell growth or viability, ATP luminescence; 48 h).
With `Nc1ccn([C@@H]2O[C@H](CO)[C@@H](O)C2(F)F)c(=O)n1` the viability was 56.6% (MDA-MB-231; cell growth or viability, MTT; 5 µg/mL, 24 h).
